Published values of several laboratories.
Numbered parts are unrelated; each lists some results of a single study.

Set 1
Target: Sal-like protein 4, full length isoform A (SALL4, Homo sapiens, UniProt Q9UJQ4, residues 1-1053)
Chain of UniProt Q9UJQ4 (whole entry, looked up): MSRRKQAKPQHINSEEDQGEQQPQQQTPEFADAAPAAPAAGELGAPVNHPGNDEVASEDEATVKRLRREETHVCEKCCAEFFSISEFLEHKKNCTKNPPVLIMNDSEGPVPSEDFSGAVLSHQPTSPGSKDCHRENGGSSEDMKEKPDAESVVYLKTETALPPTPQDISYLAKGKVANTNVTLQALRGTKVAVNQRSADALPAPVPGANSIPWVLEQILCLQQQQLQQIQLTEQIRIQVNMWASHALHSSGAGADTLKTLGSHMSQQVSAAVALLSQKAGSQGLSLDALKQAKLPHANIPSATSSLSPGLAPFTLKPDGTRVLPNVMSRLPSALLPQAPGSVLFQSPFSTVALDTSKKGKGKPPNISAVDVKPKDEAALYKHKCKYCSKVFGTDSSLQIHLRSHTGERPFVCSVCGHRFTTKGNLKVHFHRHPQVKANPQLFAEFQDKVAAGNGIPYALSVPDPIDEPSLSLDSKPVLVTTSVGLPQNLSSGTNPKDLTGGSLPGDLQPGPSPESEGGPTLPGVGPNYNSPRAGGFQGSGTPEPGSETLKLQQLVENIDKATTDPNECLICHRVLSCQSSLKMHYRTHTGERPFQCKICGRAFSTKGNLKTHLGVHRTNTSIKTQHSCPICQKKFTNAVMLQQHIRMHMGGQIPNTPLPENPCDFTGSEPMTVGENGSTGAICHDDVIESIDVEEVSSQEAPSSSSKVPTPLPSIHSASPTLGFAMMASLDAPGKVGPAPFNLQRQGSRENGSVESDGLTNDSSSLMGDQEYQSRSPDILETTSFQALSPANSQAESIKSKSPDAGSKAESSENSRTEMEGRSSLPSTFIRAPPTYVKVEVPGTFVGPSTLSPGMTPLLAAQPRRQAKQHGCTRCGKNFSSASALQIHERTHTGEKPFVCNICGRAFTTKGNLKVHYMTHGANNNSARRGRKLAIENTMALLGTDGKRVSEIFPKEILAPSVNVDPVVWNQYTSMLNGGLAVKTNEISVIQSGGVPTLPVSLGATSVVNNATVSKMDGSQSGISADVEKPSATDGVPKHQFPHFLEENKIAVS
Method: universal PBM
Form: double-stranded DNA, one strand shown
Sample: in vitro
Tested at: 600 nM
Notes: 8-mer, flanks averaged, mean of replicates
Reading: higher = stronger binding
Sequence | E-score
AGTGGGAC | -0.12
CAGGAAAC | -0.0095
CGAGAGAA | -0.0829
CCAAGTCG | -0.126
ACGCATTA | 0.192
AATGCTGT | 0.116
ACAACTAA | 0.215
AGCTATTG | 0.0513

Set 2
Target: RNA binding protein fox-1 homolog 2, RRM domain, GST-SBP tag (RBFOX2, Homo sapiens, UniProt O43251-10, residues 100-194)
Method: RNA Bind-n-Seq
Form: RNA
Sample: in vitro
Tested at: 365 nM
Notes: natural RNA segment, single round, ends assumed
Relative to: no-protein control
Reading: higher = stronger binding
Residues (chain): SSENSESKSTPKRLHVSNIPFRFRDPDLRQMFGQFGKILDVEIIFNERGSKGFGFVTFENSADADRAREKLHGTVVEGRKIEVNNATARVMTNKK
Sequence | RBNS enrichment (R)
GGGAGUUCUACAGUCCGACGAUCACAAGAUGUGCCUUGCCUUCCGAGAAUAAGUAUUACCUUUAAACAAUAUCAGCGCACACACAUAGCUGCAUGUUCUGCUCGUGUAGUUUAAAAAAAAAAAGACAAAACAGUGGAAUUCUCGGGUGCCAA | 2.19
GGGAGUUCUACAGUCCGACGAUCCAAAGCAGCAGGACUGUGGGAAAGAGCCUAACAUCUCCAUGGGGAGGCCUCACCCCAGGGACAGGGCCCUGGAGCUCAGGGUCCUUGUUUCUGCCCUGCCAGCUGCAGCCUGGAAUUCUCGGGUGCCAA | 0.234
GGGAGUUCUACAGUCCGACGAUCCAUUCUCCGAGCCAGCUGUGUUUUACACAAAGCUGUACAAUUGUUAUUGGUUGAGGUCACAAAGAUGAAACUUGUGUCAUUGGAAGUUACCCCUUGCCCCACCCCCACCCUGGAAUUCUCGGGUGCCAA | 0.344
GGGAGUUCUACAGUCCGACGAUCUGUUUGCAGCAUGCCCAAGAUGACCCUGCUCCUGAACCUCUACCUAGCCACUGGUAGAGAGAGGAGAGAACGUGGUAAUGGCAGCAACACUCUAGGCAUGAGAGCACCGGUGGAAUUCUCGGGUGCCAA | 0.973
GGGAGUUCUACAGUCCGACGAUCAAAUAGAUGAGCACAUUUAUAACUCUAAAUUAGACUUUCUAUCAAAUGGGACCAAACAUAUGGAAGGGGCUGCUGUCCUGCCUCAAUUUAGCCAAGACUUGUCUUGUCUCUGGAAUUCUCGGGUGCCAA | 0.287
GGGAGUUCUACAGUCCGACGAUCAAAUUGCUCUUCUGAAAAUUGUGUCCUGUGCUUUUAGACUUUGGAGUUCCACAGAUAGUAAAAAUAUAGCCUUCACAAUUUUUUAAUAAUCAGUAUCAUUUCUACACCAAUGGAAUUCUCGGGUGCCAA | 0.579
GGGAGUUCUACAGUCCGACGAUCAGGUAACUUUUCCUAGGUUUCACUCUUUUUAGUGUACUAGAUCCAGAAACUUAGUGUAAUGCCCUGCUUUAUAUUUCUUUGACUUAACAUUGGUUUCAGAAAGAAUCUUAUGGAAUUCUCGGGUGCCAA | 0.312
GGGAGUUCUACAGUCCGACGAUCCCUCCGGCCGUCCCUACCGACAGUGUUUGCCAAAGACAGGAGGCUGGAGGUGGACAGACCGCACGGUGGGCAGAAGAGGCUCGAGGGAGCCGCCCAGCGCUGGCCCUGCUUGGAAUUCUCGGGUGCCAA | 0.39

Set 3
Target: Replicase polyprotein 1ab, main protease (rep, Severe acute respiratory syndrome coronavirus 2, UniProt P0DTD1)
Read-out: enzyme activity
Action: inhibitor
Tested at: 20 µM
Notes: hit confirmation
Compound | inhibition
S=C(S)N1CCCC1 | 99.5%
CO[C@H]1C([C@@]2(C)O[C@@H]2CC=C(C)C)[C@]2(CC[C@H]1OC(=O)NC(=O)CCl)CO2 (stereo partly shown) | 58.2%
O=C(Nc1ccc(Cl)c(Cl)c1)Nc1ccc(Cl)c(Cl)c1 | 45.1%

Set 4
Target: Replicase polyprotein 1ab, polymerase (rep, Severe acute respiratory syndrome coronavirus 2, UniProt P0DTD1)
Read-out: enzyme activity
Action: inhibitor
Tested at: 20 µM
Compound | inhibition
CC[C@]12C=CCN3CC[C@@]4(c5cc([C@@]6(C(=O)OC)C[C@@H]7C[C@@H](C(C)(F)F)CN(Cc8c6[nH]c6ccccc86)C7)c(OC)cc5N(C)[C@H]4[C@@](O)(C(=O)OC)[C@@H]1OC(C)=O)[C@@H]32 | 16.1%
CCCC1O[C@@H]2C[C@H]3[C@@H]4CCC5=CC(=O)C=C[C@]5(C)[C@H]4[C@@H](O)C[C@]3(C)[C@]2(C(=O)CO)O1 (stereo partly shown) | 1.92%
Cc1nc(=O)c2cc(CN(C)c3ccc(C(=O)N[C@@H](CCC(=O)O)C(=O)O)s3)ccc2[nH]1 | 0.59%
C[n+]1ccccc1C=NO | -1.78%
Cc1cc(O)c2c(c1)C(=O)c1cc(O)cc(O)c1C2=O | 2.2%
NC1=NCC2c3ccccc3Cc3ccccc3N12 (stereo not shown) | 1.52%
CC(=O)NCCCCCC(=O)O | 4.79%
COC(=O)/C=C/C(=O)OC | -2.93%
CC(=O)SC[C@@H](C)C(=O)N1CCC[C@H]1C(=O)N[C@@H](Cc1ccccc1)C(=O)O | 1.56%
CC(=O)Nc1nc(C)c(-c2ccc(Cl)c(S(=O)(=O)NCCO)c2)s1 | 6.81%
Cc1cc(Nc2ncc(Cl)c(Nc3ccccc3S(=O)(=O)C(C)C)n2)c(OC(C)C)cc1C1CCNCC1 | 10.6%
C#CCC(Cc1cnc2nc(N)nc(N)c2n1)c1ccc(C(=O)N[C@@H](CCC(=O)O)C(=O)O)cc1 (stereo partly shown) | -2.3%
CN1CCN2c3c(cccc31)[C@@H]1CN(CCCC(=O)c3ccc(F)cc3)CC[C@@H]12 | 1.58%
CC(C)(Oc1ccc(Cl)cc1)C(=O)OCCOC(=O)c1cccnc1 | 0.15%
COc1ccc(-c2cc3nccn3c(Nc3ncccc3C(N)=O)n2)cc1OC | 13.3%
Cn1nc(C(C)(C)C)cc1C(=O)N[C@@H](Cc1cccc(Cl)c1)C(=O)NCC#N | -1.74%
CCOC(=O)Nc1ccc(NCc2c(C)cc(C)cc2C)cc1N | -2.85%
C[C@H](NCc1ccc(OCc2ccccc2F)cc1)C(N)=O | 2.84%
CC(=O)O[C@H]1C(=O)[C@@]2(C)[C@H]([C@H](OC(=O)c3ccccc3)[C@]3(O)C[C@H](OC(=O)[C@H](O)[C@@H](NC(=O)c4ccccc4)c4ccccc4)C(C)=C1C3(C)C)[C@]1(OC(C)=O)CO[C@@H]1C[C@@H]2O | 3.89%
COc1ccc(S(=O)(=O)N2CCC[C@H]2C(=O)Nc2cc(C)cc(C)c2)cc1 | 0.77%
C[C@]12CC[C@H]3[C@@H](CCC4=CC(=O)CC[C@@H]43)[C@@H]1CC[C@@H]2O | -2.02%
COC(=O)C[C@](O)(CCCC(C)(C)O)C(=O)O[C@@H]1C(OC)=C[C@]23CCCN2CCc2cc4c(cc2[C@H]13)OCO4 | -2.2%
O=C(C1CCCCC1)N1CC(=O)N2CCc3ccccc3C2C1 (stereo not shown) | 16.6%
CCCCc1cc2ccccc2c(OCCN(C)C)n1 | -4.37%
CCCCC[C@H](O)/C=C/[C@H]1[C@H](O)CC(=O)[C@@H]1C/C=C\CCCC(=O)O | -7.18%

Set 5
Cell line: HEK-293T
Read-out: pseudovirus infection
Method: FDA-approved drug library screen
Organism: VSV pseudotyped with SARS-CoV-2 spike
Tested at: 10 µM
Time: 16 h
Relative to: vehicle-treated
Compound | GFP-positive cells [%]
CC1(C)O[C@@H]2C[C@H]3[C@@H]4CCC5=CC(=O)C=C[C@]5(C)[C@@]4(F)[C@@H](O)C[C@]3(C)[C@]2(C(=O)CO)O1 | 98.1
Cc1ccc(O)c([C@H](CCN(C(C)C)C(C)C)c2ccccc2)c1 | 30
CCCCCCCCCCC[C@@H](C[C@@H]1OC(=O)[C@H]1CCCCCC)OC(=O)[C@H](CC(C)C)NC=O | 79.8

Set 6
Target: Interferon regulatory factor 7, full length, phosphomimetic (IRF7, Homo sapiens, UniProt Q92985, residues 1-503, S101K/S471D/S472D/S475D/S476D/S477D/S483D/S484D/S487D)
Method: protein-binding microarray
Form: double-stranded DNA, one strand shown
Sample: in vitro
Tested at: 250 nM
Notes: 60-bp whole probe
Together with: salmon DNA 0.4 mg/ml
Relative to: random background probes
Reading: higher = stronger binding
Shared flanks, not repeated: GCCTAGCAC … GTCTTGATTCGCTTGACGCTGCTG
Residues (chain): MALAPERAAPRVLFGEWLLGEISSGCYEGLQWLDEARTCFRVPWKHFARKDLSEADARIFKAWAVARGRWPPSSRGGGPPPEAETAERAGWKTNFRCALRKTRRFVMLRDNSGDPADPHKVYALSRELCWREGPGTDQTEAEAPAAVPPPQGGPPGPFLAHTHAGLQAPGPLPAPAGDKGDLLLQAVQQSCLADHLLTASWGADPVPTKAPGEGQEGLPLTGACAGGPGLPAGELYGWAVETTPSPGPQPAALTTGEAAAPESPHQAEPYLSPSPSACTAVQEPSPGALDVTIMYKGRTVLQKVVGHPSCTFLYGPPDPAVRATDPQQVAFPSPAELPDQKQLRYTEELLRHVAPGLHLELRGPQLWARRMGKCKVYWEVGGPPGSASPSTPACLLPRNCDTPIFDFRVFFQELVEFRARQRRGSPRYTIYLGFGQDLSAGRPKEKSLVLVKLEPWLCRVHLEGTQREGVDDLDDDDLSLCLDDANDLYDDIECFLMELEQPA
Sequence | log fluorescence
GACGGTAGCCTTCTCCTGACGTGCTAG | -0.95 z-score
GACGGTTTCCTTTCCCTCACGTGCTAG | 4.66 z-score
TTAGAACTGTGACTGGATTAGTGCTAG | 0.0974 z-score
TCAGTACTTTCTATCTCACTGTGCTAG | 0.789 z-score
TTAGGTTTCCTTTCCATTTAGTGCTAG | 4.2 z-score
TCAGAGTTCTGTTGCAAACTGTGCTAG | -0.61 z-score
TTAGGTTTCGACACTTGGTTAGTGCTA | 3.29 z-score
GCTATTTTTAGGATGGGCTAGTGCTAG | 0.211 z-score

Repeated from above (set 4):
Compound | inhibition
Cc1cc(Nc2ncc(Cl)c(Nc3ccccc3S(=O)(=O)C(C)C)n2)c(OC(C)C)cc1C1CCNCC1 | 10.6%
C#CCC(Cc1cnc2nc(N)nc(N)c2n1)c1ccc(C(=O)N[C@@H](CCC(=O)O)C(=O)O)cc1 (stereo partly shown) | -2.3%
CN1CCN2c3c(cccc31)[C@@H]1CN(CCCC(=O)c3ccc(F)cc3)CC[C@@H]12 | 1.58%
CC(C)(Oc1ccc(Cl)cc1)C(=O)OCCOC(=O)c1cccnc1 | 0.15%
COc1ccc(-c2cc3nccn3c(Nc3ncccc3C(N)=O)n2)cc1OC | 13.3%
Cn1nc(C(C)(C)C)cc1C(=O)N[C@@H](Cc1cccc(Cl)c1)C(=O)NCC#N | -1.74%
CCOC(=O)Nc1ccc(NCc2c(C)cc(C)cc2C)cc1N | -2.85%
